Results pooled from the literature.
Numbered parts are unrelated; each lists some results of a single study. Values joined by “and” are separate records of one study, mostly repeats; a detail may differ.

Series 1
SMILES: Cc1nc(C)c(C=[N+]([O-])C(C)(C)C)nc1C
Method: footprint test
Species: MPTP-induced Parkinson's disease mouse model
setting | corridor crossing time
30 mg/kg, trial 1 | 5.5 s and 6.08 s and 9.05 s and 5.97 s and 5.16 s and 4.78 s and 8.74 s and 4.85 s
30 mg/kg, trial 2 | 8.22 s and 6.22 s and 4.51 s and 5.08 s and 7.24 s and 5.33 s and 5.87 s and 5.94 s
90 mg/kg, trial 2 | 5.65 s and 5.63 s and 7.26 s and 5.66 s and 7.22 s and 6.69 s and 6.35 s
30 mg/kg | 5.93 s and 4.94 s and 7.2 s and 5.01 s and 6.61 s and 5.74 s and 5.1 s and 5.78 s
10 mg/kg, trial 2 | 6.22 s and 6.73 s and 7.85 s and 7.13 s and 4.99 s and 9.21 s and 5.22 s
10 mg/kg, mean of three trials | 6.88 s and 6.37 s and 4.7 s and 8.42 s and 6 s and 7.11 s and 6.83 s
90 mg/kg, trial 3 | 5.6 s and 7.13 s and 5.23 s and 4.47 s and 4.24 s and 6.09 s and 5.22 s
90 mg/kg, mean of three trials | 5.23 s and 4.73 s and 6.19 s and 5.45 s and 5.55 s and 5.13 s and 5.26 s

Series 2
Cell line: P493B lymphoma cells
Matrix: P493B cells in human plasma
Tested at: concentration not given
Notes: tumour cell fraction of partition
SMILES | DON concentration [nmol/g]
[2H]C([2H])([2H])OC(=O)[C@H](CCC(=O)C=[N+]=[N-])NC(=O)[C@H](Cc1c[nH]c2ccccc12)NC(C)=O | 2.23
COCCOCCOC(=O)[C@H](CCC(=O)C=[N+]=[N-])NC(=O)[C@H](Cc1c[nH]c2ccccc12)NC(=O)CN(C)C | 2.05
CC(=O)N[C@@H](Cc1c[nH]c2ccccc12)C(=O)N[C@@H](CCC(=O)C=[N+]=[N-])C(N)=O | 0.86
CC(C)OC(=O)[C@H](CCC(=O)C=[N+]=[N-])NC(=O)[C@H](Cc1c[nH]c2ccccc12)NC(=O)CN1CCN(C)CC1 | 1.64

Series 3
SMILES: CCOC(=O)/C=C/CNCCCCN1c2cc(Cl)ccc2CCc2cnn(C)c21.O=C(O)/C=C\C(=O)O
Cell line: NCI-H292
Method: CellTiter-Glo
Time: 72 h
setting | viability
0.5 µM | 97.8% and 99% and 96.8%
0.05 µM | 103% and 105%
5 µM | 18.2% and 18.9% and 19.1%
50 µM | -0.333% and -0.579% and -0.507%
0.005 µM | 105% and 101%

Further values, each from its own experiment
SMILES | test system | setting | measurement | value
Cn1cc(-c2cccc(CN3CCC4(CC3)COc3c4ccc4c3CN([C@H]3CCC(=O)NC3=O)C4=O)c2)cn1 | rat | intravenous, 1 mg/kg | Vz | 2.86 L/kg and 3.49 L/kg and 3.93 L/kg
